{"data": "Experimental data collected from several papers", "note": "Parts stem from different laboratories: compare values within a part only. Changes are numbered by the printed parent chain."}
{"data": "Series 1", "target": "RING finger protein unkempt homolog, zinc fingers 1-6, GST-SBP tag (UNK, Homo sapiens, UniProt Q9C0B0, residues 30-357)", "method": "RNA Bind-n-Seq", "molecule type": "RNA", "matrix": "in vitro", "tested at": "not given", "setting": "RNA with constant flanks, human-mouse chimeric sites, ends assumed", "reference": "input RNA pool", "direction": "higher = stronger binding", "shared flanks, not repeated": "GGGAGUUCUACAGUCCGACGAUC … CAACAGAGGAUUGAGCAUCA", "chain of UniProt Q9C0B0 (30-357, looked up)": "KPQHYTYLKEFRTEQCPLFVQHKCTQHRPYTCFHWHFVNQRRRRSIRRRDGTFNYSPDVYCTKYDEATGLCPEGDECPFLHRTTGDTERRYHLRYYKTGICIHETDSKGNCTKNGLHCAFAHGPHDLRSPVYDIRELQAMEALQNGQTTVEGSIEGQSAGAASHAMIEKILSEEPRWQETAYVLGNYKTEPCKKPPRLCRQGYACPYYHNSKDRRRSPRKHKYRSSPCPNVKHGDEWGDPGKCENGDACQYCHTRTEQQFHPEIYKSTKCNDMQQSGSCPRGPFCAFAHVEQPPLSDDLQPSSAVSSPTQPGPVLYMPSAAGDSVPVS"}
{"Strand": "CCAAGUGAUUCAUUCCAAGGACAGGCCACCCCAUUUGAUGCCUGGACUGAUGACAGUAUGGAAGGGCCUAGUCAAAAUGUUGAAGCUGAGUCAAUUCAGGAUGCCAUGAGUAUGGAAGAG", "bound/input enrichment": "0.242 ratio"}
{"Strand": "AAAGAGAAACUAAAGCAACUAAUAGAGAAGAGGAUUGGGCAAAGAGAUUUCAUAGAGAAACUAGGAUUUAUUAGCAAACAUGAGUUAUAUUCCAGAGCGUCUCAGAAACCCCAGCCAAAC", "bound/input enrichment": "3.97 ratio"}
{"Strand": "CCUGCUCAGAUCACCAUGAAAGUAAUCCAAGGCCUAUACAGUGGGGUCACCACAGUGGAACUGGACACCCUGGCUGCUGAAACAGCUGCGACCUUGACCACGAAGCACCCUGACUAUGCC", "bound/input enrichment": "0.129 ratio"}
{"Strand": "UGGCGCCUGCGCUCCCCGUUUUUAAAUUUAAGUGUAUUUUUAUAAGAUACAUGUAUUUGUAAUAGAUCUUUUGUUACAUAAUGCUGAAAUGCUACUGGAGAUUAUGAAAAAUGUUUCAAU", "bound/input enrichment": "0.927 ratio"}
{"Strand": "GUUCGGCUUUGGGAUCAUGCCACAAUGACAGAAGUGAAAUCUCUGAAUUUUAAUAUGUCUGUUAGCAGCAUGGAGUAUAUUCCUGAAGGAGAGAUUUUGGUUAUUACUUAUGGACGAUCU", "bound/input enrichment": "0.34 ratio"}
{"Strand": "CAGCUGCAGACAGAAAAGGAUGAGAAGGAGCUGUAUAAGGUACAUUUGAAGAAUACAGAAAUAGAAAAUACGAAGCUUGUGUCAGAGGUCCAGACUUUAAAGAAUUUAGAUGGAAACAAA", "bound/input enrichment": "5.49 ratio"}
{"Strand": "GAGUCGAGCAAACUUGAAACUACAGAAUAUCUUGCAGCCUCAGUGUUCACUUGCUUGUGGCAAUAGCUGGGGUUUUAUAGGUUCUGGAAGGAGAACUGACGAUGAUGCUGCCGCUGCUGC", "bound/input enrichment": "0.224 ratio"}
{"Strand": "AUGGAACAUUUCGAUGCAUCACUUAGUACCUAUUUCAAGGCAUUGCUGGGCCCCCGAGAUACAAGAGUCAAAGGAUGGUUCCUCCUGGACAAUUACAUCCCUACGUUUGUCUGUUCUGUU", "bound/input enrichment": "0.466 ratio"}
{"Strand": "AAAUCGUGUGUGUCCAAUAUUGAAAGUACUUUAUCUGCACUCCAGUAUGUAAGCAGUAUAGUAGUUUCUUUAGAGAAUAGGUCAGCCAUUGUAAAGUACAAUGCAAGCUUAGUCACUCCA", "bound/input enrichment": "2.92 ratio"}
{"Strand": "UGUGAACUGAAAGGUGUUUGGGGUCUACAAGAUGACUUUUCCUGGCACAUAUUCCAAAGCAAAGACUUUGUUGCCUGCUGCUUAUUGUCUAAUUUACAGGGAUAUUUAAUUUUGUCAGGU", "bound/input enrichment": "0.182 ratio"}
{"Strand": "UCUUUAAAAAAAAAAUUACCUUUUCUGACAGUGCUUUCCCUCCCAUAGAUCCACGUUCAAGCUCAAAGGCCAAAACUUUUGCACGGAGCUCAAACAUCUGAUGAAGAAAGAUUUCUGAGA", "bound/input enrichment": "1.35 ratio"}
{"data": "Series 2", "target": "CCNF, cyclin fold, Cln2 fusion (human)", "method": "yeast growth competition, sequencing", "matrix": "yeast", "setting": "strong parent motif", "reference": "not given", "direction": "higher = stronger binding", "starting sequence": "PKN2 docking peptide (human); VSAVRKLDFSDTM"}
{"Variant": "V4K", "normalised enrichment score": 7.58}
{"Variant": "S10T", "normalised enrichment score": 7.26}
{"Variant": "A3T", "normalised enrichment score": 7.23}
{"Variant": "K6F", "normalised enrichment score": 6.57}
{"Variant": "K6G", "normalised enrichment score": 4.62}
{"Variant": "K6Q", "normalised enrichment score": 6.6}
{"Variant": "S2T", "normalised enrichment score": 7.01}
{"Variant": "K6I", "normalised enrichment score": 6.04}
{"Variant": "V4G", "normalised enrichment score": 5.8}
{"Variant": "R5P", "normalised enrichment score": -0.378}
{"Variant": "S10P", "normalised enrichment score": 7.02}
{"Variant": "F9Q", "normalised enrichment score": 0.123}
{"Variant": "L7A", "normalised enrichment score": -0.0748}
{"Variant": "S2H", "normalised enrichment score": 7.18}
{"Variant": "T12W", "normalised enrichment score": 7.23}
{"Variant": "S10G", "normalised enrichment score": 7.24}
{"Variant": "L7E", "normalised enrichment score": -0.00204}
{"Variant": "R5Y", "normalised enrichment score": -0.00216}
{"Variant": "L7I", "normalised enrichment score": 5.99}
{"Variant": "V4F", "normalised enrichment score": 6.37}
{"Variant": "V4P", "normalised enrichment score": 5.27}
{"Variant": "F9L", "normalised enrichment score": 5.8}
{"Variant": "D8Y", "normalised enrichment score": 8.04}
{"Variant": "D11M", "normalised enrichment score": 7.53}
{"Variant": "T12C", "normalised enrichment score": 6.21}
{"data": "Series 3", "target": "Interferon regulatory factor 3, full length, phosphomimetic (IRF3, Homo sapiens, UniProt Q14653, residues 1-427, S386D/S396D/S398D/S402D/T404D/S405D)", "method": "protein-binding microarray", "molecule type": "double-stranded DNA, one strand shown", "matrix": "in vitro", "tested at": "2540 nM top", "setting": "60-bp whole probe", "with": "salmon DNA 0.4 mg/ml", "reference": "random background probes", "direction": "higher = stronger binding", "shared flanks, not repeated": "GCCTAGCAC … GTCTTGATTCGCTTGACGCTGCTG", "Construct (chain)": "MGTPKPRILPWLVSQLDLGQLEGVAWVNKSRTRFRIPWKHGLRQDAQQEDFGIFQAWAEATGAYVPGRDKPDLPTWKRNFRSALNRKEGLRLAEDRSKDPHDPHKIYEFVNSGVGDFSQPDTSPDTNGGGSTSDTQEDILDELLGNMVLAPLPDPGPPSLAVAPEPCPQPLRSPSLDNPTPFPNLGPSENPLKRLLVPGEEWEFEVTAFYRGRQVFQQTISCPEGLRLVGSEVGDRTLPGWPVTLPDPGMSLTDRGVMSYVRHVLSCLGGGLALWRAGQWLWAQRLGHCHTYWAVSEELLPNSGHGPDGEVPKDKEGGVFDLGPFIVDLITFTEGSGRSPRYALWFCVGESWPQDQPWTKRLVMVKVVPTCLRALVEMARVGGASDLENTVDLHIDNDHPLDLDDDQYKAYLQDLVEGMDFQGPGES"}
{"Strand": "TTAGATTTCAGAGTGGATTAGTGCTAG", "fitted relative affinity [z-score]": 0.441}
{"Strand": "GACGGTTTCGGATATCGGGACGTGCTA", "fitted relative affinity [z-score]": 5.94}
{"Strand": "TTAGGTCTCCTTTCCCTTTAGTGCTAG", "fitted relative affinity [z-score]": 5.33}
{"Strand": "AGATTTTTTTTCCTAATTGAGTGCTAG", "fitted relative affinity [z-score]": 2.6}
{"Strand": "GACTGACTGGGTATCGGGACGTGCTAG", "fitted relative affinity [z-score]": -0.247}
{"Strand": "GACGGACTGGACTATCGGTACGTGCTA", "fitted relative affinity [z-score]": -0.279}
{"Strand": "GACGAGCTGAGTATCGAGACGTGCTAG", "fitted relative affinity [z-score]": -0.142}
{"Strand": "TACGATTTCAGTTCCGAGACGTGCTAG", "fitted relative affinity [z-score]": 2.64}
{"Strand": "ATGTTTTTCATTTTTTTTCAGTGCTAG", "fitted relative affinity [z-score]": 1.75}
{"Strand": "TCATTTTACATTATTACACTGTGCTAG", "fitted relative affinity [z-score]": 2.44}
{"Strand": "TCAGGTATCCTTCTCCTTTAGTGCTAG", "fitted relative affinity [z-score]": 7.44}
{"Strand": "GACGGCTTCGGGACTGGGGACGTGCTA", "fitted relative affinity [z-score]": -0.816}
{"Strand": "TCAATTTTCTAAATTCCACTGTGCTAG", "fitted relative affinity [z-score]": 1.09}
{"Strand": "AACCGCACAGAACTAAAACAGTGCTAG", "fitted relative affinity [z-score]": 0.563}
{"Strand": "GACGGTATTGGGTTTCGGGACGTGCTA", "fitted relative affinity [z-score]": 1.48}
{"Strand": "TTAGGTTTCGGGTTTCGGATAGTGCTA", "fitted relative affinity [z-score]": 6.26}
{"Strand": "TTAGGACTGGGTATCGGCTAGTGCTAG", "fitted relative affinity [z-score]": -0.639}
{"Strand": "TCCTATATCTGAACCGCAGAGTGCTAG", "fitted relative affinity [z-score]": 1.15}
{"Strand": "GACGGTTTCCTTACCCTGACGTGCTAG", "fitted relative affinity [z-score]": 6.16}
{"Strand": "GACGGTTTCCGTATCGGGACGTGCTAG", "fitted relative affinity [z-score]": 6.52}
{"data": "Series 4", "target": "RNA binding protein fox-1 homolog 2, RRM domain, GST-SBP tag (RBFOX2, Homo sapiens, UniProt O43251-10, residues 100-194)", "method": "RNA Bind-n-Seq", "molecule type": "RNA", "matrix": "in vitro", "tested at": "365 nM", "setting": "natural RNA segment, single round, ends assumed", "reference": "no-protein control", "direction": "higher = stronger binding", "shared flanks, not repeated": "GGGAGUUCUACAGUCCGACGAUC … UGGAAUUCUCGGGUGCCAA", "Construct (chain)": "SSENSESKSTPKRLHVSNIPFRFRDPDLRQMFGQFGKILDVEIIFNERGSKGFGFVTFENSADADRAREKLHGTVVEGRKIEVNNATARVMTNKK"}
{"Strand": "CGCACUUUUAAGGUUUGGUUGUUUUUUAUAUAUAUAUGUGUAUAGUUACCAACUUAAAAAUAAAAAAUCCGAACAACAUACUUGAAGAAUGUAAUACUCAAACUCUCAGU", "RBNS enrichment (R)": 0.289}
{"Strand": "GAGGCACAUAGGCUACCCAAGAGAGCCUUGGAUUCAGUGGUACACUCCUUGGGCCCAAGGGCUUUAGCAGCUGGAUAUGGGGUUCCUUGAUUUUCCUCUGGGCCCAAAUA", "RBNS enrichment (R)": 0.905}
{"Strand": "CUCCUGUGCCCAUUUUAUAAUACCUCGCCAAGCUUGGGUCUUUAGAUGAGCAAGAUUAUGGUUAGUGGGGGCUCUGUGGAGCAUGCACGUAGUGCCCUUCCUUCAUCAGG", "RBNS enrichment (R)": 7.74}
{"Strand": "UGUUACAGCUUCCCCUAGAUUACAUAGCUCUGCUGUUGUCCAUUGUUUCAAAUAAAUGUUCUGUAGCAUUCCCACAUAGAGAAAAAGAGUGCUUUCUGUUUUUGUCAGAA", "RBNS enrichment (R)": 0.635}
{"Strand": "CAAGACAGUAGAUGAGUCUGGUUAAGCGAGGUCAGACAUCCACCAGAAUCAACUCAGCCUCAGGCAUCCAAAGCCACACCACAGUCGGUGGUGAUGCAACUGGGGGCUUA", "RBNS enrichment (R)": 0.381}
{"Strand": "UUCUCUGUGUACCACCUCUGCUGUCUCAGAUGCCCCCAGCAAAUAAACACUCUUCUCGUUGGUCAGACUGGAUUGUGCGUCCAAUCAUUUUGGCUGGGGUAGGGGGUAAU", "RBNS enrichment (R)": 0.439}
{"Strand": "AAGAAUGCUAUAGAUGACAACAGUAUUAAAUGUUACUCCUGAUUCUGCAGAACAGCUUUUGAAGAUACUGGGGGGUAUCUUCAAGCCUCAGAGCAGCUUGUUUCAGAUAG", "RBNS enrichment (R)": 1.2}
{"Strand": "CAGAAUGAACUGGCUUCGGACAGAACAGGACAGAUGGAUGUCGCACACGCCGAGACUCUGCCGUACCCCUCUGUGGUUCAUAUUACUACUUCUGUUCCAUGGUGUGCAGG", "RBNS enrichment (R)": 0.492}
{"Strand": "UUUGGAGUAAAACAAACUUCUAGCUUUAGCCAGGUGUGCAUGUUGUCGCCAUUUGCAUUUUGAGUCAUCUUGUGUAAAUGUCACCAUGAAAGUGUUACUCAGAAUUGUCA", "RBNS enrichment (R)": 1.66}
{"Strand": "UGCCUUCAUUAGGACGUUCUUUUUAGAAGCAGUUCUUCCAGCUCUGGAUCAUAGAGUGACCUUUAAUAAGUUAAAAAAACGAGGACUCCUUAAUUCUGCUAGAGUUAACC", "RBNS enrichment (R)": 0.297}
{"Strand": "CACGCUCUCCAUGCUAGAGAGCCUUCUCUUUCCUCUGAGGUUUGAACUGAUGUUCUGUGUCUUCACACCCUGGCAUGACAGUUACGUGUGGUCAGCCCGCUCCCCAGGCC", "RBNS enrichment (R)": 0.439}
{"Strand": "CAAUCAAAGCACUUGGACUCUUGCUCUUUCUACUCUGAACUAAUAAAUCUGUUGCCAAGCUGGCUAGGAUCCGCUUUUUUUCAGCAAACACUGAGCACACAUUUUGCUAG", "RBNS enrichment (R)": 0.464}
